Literature values that unrelated publications cite.
Lines come from different studies, so protocols differ. Numbers after ± are the reported error.
Chain of UniProt P35348 (whole entry, looked up): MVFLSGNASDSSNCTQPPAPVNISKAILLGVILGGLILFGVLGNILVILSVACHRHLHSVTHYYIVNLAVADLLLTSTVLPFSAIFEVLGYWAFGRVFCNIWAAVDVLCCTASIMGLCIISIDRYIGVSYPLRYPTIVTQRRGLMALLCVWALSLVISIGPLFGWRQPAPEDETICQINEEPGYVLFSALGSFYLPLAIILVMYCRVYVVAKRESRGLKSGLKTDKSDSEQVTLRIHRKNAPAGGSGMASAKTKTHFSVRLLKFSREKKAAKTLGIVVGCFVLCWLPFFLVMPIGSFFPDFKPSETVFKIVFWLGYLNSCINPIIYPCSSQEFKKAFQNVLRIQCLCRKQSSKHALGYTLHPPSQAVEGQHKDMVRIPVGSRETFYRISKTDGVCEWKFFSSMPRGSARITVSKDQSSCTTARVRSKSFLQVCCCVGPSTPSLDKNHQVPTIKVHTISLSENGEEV
Chain of UniProt P35368 (whole entry, looked up): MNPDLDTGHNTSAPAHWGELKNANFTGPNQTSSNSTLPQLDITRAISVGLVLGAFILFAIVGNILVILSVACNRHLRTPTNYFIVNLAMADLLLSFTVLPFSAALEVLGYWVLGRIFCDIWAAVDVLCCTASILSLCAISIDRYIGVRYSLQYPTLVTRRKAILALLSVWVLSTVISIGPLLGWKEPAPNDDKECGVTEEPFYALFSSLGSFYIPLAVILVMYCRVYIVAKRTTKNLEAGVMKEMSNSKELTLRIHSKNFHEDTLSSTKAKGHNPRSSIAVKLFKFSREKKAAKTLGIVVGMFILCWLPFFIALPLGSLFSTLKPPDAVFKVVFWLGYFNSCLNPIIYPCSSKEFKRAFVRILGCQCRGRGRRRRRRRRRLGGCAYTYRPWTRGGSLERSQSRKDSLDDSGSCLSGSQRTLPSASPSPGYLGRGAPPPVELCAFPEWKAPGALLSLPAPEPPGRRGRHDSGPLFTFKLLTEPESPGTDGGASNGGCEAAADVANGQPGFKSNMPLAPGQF

Cl.Cl.O=C(c1cc(F)cc(N2CCNCC2)c1)N1CCN(C(=O)c2ccc(O[C@H]3CCNC3)c(C3CCCCC3)c2)CC1
selectivity ratio (Wnt-activated cancer cells; cytotoxicity; baseline: Wnt-activated over Wnt-latent cells): > 10 fold

Cc1nnc(C(=O)NC(C)(C)c2nc(C(=O)NCc3ccc(F)cc3)c(O)c(=O)n2C)o1
CC50 (HOS; refers to: ATP level): > 250 µM

N[C@@H](Cc1ccc(N(CCCl)CCCl)cc1)C(=O)O
CC50 (HPLF periodontal ligament fibroblasts): > 200 µM

C=C1[C@@H](OC(C)=O)C[C@H]2C(C)(C)C[C@H](Cl)C[C@]2(C)[C@H]1C[C@H](O)[C@H]1CC(=O)NC1=O
IC50 (P388; cytotoxicity; literature value): 0.007 µM

CC1(C)CC(O)CC(C)(C)N1[O]
IC50 (HaCaT; cytotoxicity; 24 h): 11400 µM

NC(=O)CBr
EC50 (CHO; DNA damage): 36.8 µM

C=C1[C@@H](O)C[C@H]2C(C)(C)CCC[C@]2(C)[C@H]1C[C@H](O)[C@H]1CC(=O)NC1=O
IC50 (P388; cytotoxicity; literature value): 0.1 µM

C=CCN(CC=C)CCc1c[nH]c2ccccc12
Ki (ADRA1A (Homo sapiens, UniProt P35348); binding; cloned human receptor; added: [3H]prazocin): 1.66 µM

CNC(C)C1CCC(N)C(OC2C(N)CC(N)C(OC3OCC(C)(O)C(NC)C3O)C2O)O1 (centres unmarked)
CC50 (COS-7; cytotoxicity): 750 ± 100 µM

COc1cc2c3c(n(CCCNCCO)c(=O)c2cc1OC)-c1cc2c(cc1C3=O)OCO2
GI50 (NCI-60 panel (60 lines); mean graph midpoint): 0.21 ± 0.19 µM

COc1ccc(CN(C(=O)[C@@H](N)Cc2c(C)cc(C(N)=O)cc2C)[C@@H](C)c2nc(-c3ccccc3)c[nH]2)cc1C(=O)O
dose recovered in faeces (human; 300 mg single radiolabelled dose, 336 h): 82%

CCN(CC)CCCC(C)Nc1c2ccc(Cl)cc2nc2ccc(OC)cc12 (centres unmarked)
CC50 (A549-ACE2): 9.24 µM

NC(=O)CCl
EC50 (CHO; DNA damage): 1380 µM

C=CCN(CC=C)CCc1c[nH]c2ccc(F)cc12
Ki (ADRA1B (Homo sapiens, UniProt P35368)): > 10 µM

Some of these lines once more:
CC1(C)CC(O)CC(C)(C)N1[O]
IC50 (HaCaT; cytotoxicity; 24 h): 11400 µM
